Published values of several laboratories.
Numbered parts are unrelated; each lists some results of a single study. Changes are numbered by the printed parent chain.

Block 1 — technique: competition protein-binding microarray; molecule type: double-stranded DNA, one strand shown; matrix: in vitro; tested at: 2 µM; added: Cbf1 competitor, 0.05 µM; direction: higher = stronger binding
Target: Phosphate system positive regulatory protein PHO4, full length, GST-tagged (PHO4, Saccharomyces cerevisiae, UniProt P07270, residues 1-312)
Setting: whole 60-bp probe, lowest competitor level
Residues (chain): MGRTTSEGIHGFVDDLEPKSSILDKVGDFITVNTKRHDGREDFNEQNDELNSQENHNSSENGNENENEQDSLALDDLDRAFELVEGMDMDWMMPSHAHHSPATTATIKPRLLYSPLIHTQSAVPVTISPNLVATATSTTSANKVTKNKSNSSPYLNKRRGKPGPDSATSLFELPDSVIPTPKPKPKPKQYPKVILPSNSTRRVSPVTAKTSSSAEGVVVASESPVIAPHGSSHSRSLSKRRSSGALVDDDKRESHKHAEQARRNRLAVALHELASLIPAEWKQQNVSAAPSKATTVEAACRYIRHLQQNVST
Oligonucleotide | fluorescence intensity [a.u.]
CTTTCCCGATCTTGTCACCTAACTTTAGCACATTTGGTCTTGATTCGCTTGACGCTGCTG | 4270
GTCTTGTCTCATTTTCACGTGATGTTCCCCACTTCAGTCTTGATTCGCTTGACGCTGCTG | 9640
TTTATTGATTAACAAATAATCGAGACACACTATAGAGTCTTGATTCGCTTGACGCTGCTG | 4740
CTAACGAAGGTTTTTCACGTGGGATACAAGCCAAGTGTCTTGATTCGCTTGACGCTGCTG | 14400
TGTCCCAATTCCCAGCTCGTGGAACCTGGTGTTTTAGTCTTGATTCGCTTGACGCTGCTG | 7800
TGCGCAACAACTTCGCACGTGTTTTTATGTCTAGAAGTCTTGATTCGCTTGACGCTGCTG | 20900
AAATTACTAAGTTGTAAGGTGGGTGACGCCGTATGAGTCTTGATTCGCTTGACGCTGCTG | 3810
CGGGGTTAAGTTTGTTAGGTGGGTGGCTTGCAGCAGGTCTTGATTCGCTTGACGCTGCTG | 5250
CAAGCCCCAAGTACCCACGTTGTTGAGGTGTTTTTTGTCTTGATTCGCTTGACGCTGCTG | 14000
CTTTCCCGATCTTGCCACGTGTTTTTAGCACATTTGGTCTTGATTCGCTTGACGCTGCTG | 17400
CTTTCTCCCATTCCGCACGTGTCTGCACAAGGCTGGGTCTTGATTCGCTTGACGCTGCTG | 19600
GTCTTGTCTCATTGTCACGATACTTTCCCCACTTCAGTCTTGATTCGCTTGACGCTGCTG | 5350
GCAAAAAAAGCCCATCACGTGATGGGGAAGATTTCAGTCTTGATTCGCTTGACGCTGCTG | 12800
GTATTTCCGGTATCGCACGTGGTGATGGATTTGATCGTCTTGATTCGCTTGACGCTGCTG | 19600
TCAAGTAGAATACTACACGTGCAAACGGTAGCAAGCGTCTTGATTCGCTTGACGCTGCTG | 16100
TTATTTCCCTTCCCTCGCGTGCCAGTCGGCGATCTCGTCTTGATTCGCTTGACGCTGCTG | 7680
CAACATGCCAAATCGCACGTGACTCGAAACTATGGAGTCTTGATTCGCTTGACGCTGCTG | 15900
CATACACCAAACGCAAATGTGCGGACGGACAAATTCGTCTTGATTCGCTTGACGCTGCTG | 5490
CTGTGAGACCAGTTAAAGACCTCTCTCAAGAAAAATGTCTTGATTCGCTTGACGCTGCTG | 3150
TGCGCAACAACTTTTCACGTGTGATTATGTCTAGAAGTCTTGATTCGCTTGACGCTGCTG | 12900
CCGCAGTGCGTAGTTGACGTGGGTAGAAAGCTAGTGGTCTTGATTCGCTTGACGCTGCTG | 5320
TTATTCCCGTATCCACACGTGGCCGAAGAATATATAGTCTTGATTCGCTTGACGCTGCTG | 18100

Block 2 — target: CCND1, cyclin fold, Cln2 fusion (human); technique: yeast growth competition, sequencing; matrix: yeast; setting: weak parent motif; baseline: not given; direction: higher = stronger binding
Starting sequence: FZR1 docking peptide (human); QDYERRLLRQIVI
Change | normalised enrichment score
I11A | 0.237
R9A | -0.403
R6A | 0.0286
R5A L7A | 0.191
D2A | -0.0147
I13A | -0.464
R5K | -0.116
R5A | -0.000856
L8A | -0.281
R5K L8F | 0.0319

Block 3 — technique: RNA Bind-n-Seq; molecule type: RNA; matrix: in vitro; tested at: not given; baseline: input RNA pool; direction: higher = stronger binding
Target: RING finger protein unkempt homolog, zinc fingers 1-6, GST-SBP tag (UNK, Homo sapiens, UniProt Q9C0B0, residues 30-357)
Sequence of UniProt Q9C0B0 (30-357, looked up): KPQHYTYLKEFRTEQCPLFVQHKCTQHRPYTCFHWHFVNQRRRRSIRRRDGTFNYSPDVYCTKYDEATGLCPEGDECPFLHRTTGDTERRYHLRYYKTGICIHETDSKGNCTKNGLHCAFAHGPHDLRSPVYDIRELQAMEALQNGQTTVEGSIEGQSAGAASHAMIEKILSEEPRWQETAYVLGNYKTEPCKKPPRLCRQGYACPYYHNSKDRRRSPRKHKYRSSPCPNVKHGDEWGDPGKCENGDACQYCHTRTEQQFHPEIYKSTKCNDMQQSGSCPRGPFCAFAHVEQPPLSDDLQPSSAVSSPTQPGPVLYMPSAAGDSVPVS
Setting: RNA with constant flanks, human-mouse chimeric sites, ends assumed
Oligonucleotide | bound/input enrichment [ratio]
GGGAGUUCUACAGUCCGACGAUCGGCCUGGGACCGUCCUGGCUAGUGCAAAAUAGCGGCAGUGGAGGCUCGAGAGGAAAGUUUGUUAGUGGAGGCAGUGGUAGAGGCCGUCAUGUACGGUCUUUACACGAAUAGAUGUGUUCUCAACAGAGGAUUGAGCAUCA | 0.974
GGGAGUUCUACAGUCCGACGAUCGGACAUCUGUCAAAUUGUUAUGUUCCUGUGAAACAAGUGAGCACUUUGAUACACUUCAUCUGCUUGUACAUCUGUAUGAUAGAGAAACAGAAAUCUAUUAAUCCAAGCAAUGUGUCACUUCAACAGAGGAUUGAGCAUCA | 0.164
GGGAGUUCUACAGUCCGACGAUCGGAAGUACAAUGAUGGAGAUUGAUGGUGAUAAAGGCAAGCAGGGCGGGCCCACCUACUACAUAGAUACCAAUGCCCUCCGCGUGCCCAGGGAGAACAUGGAGGCCAUCUCACCACUCAAGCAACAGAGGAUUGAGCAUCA | 0.293
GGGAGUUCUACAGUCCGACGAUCCACGUGUCUGCAGUACUUGAUGUGGACUACUCUCCCACUGGGAAGGAAUUUGUGUCUGCUAGUUUCGAUAAAUCUAUUAGAAUCUUUCCUGUGGACAAGAGCCGAAGCAGGGAAGUGUAUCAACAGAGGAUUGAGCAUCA | 1.79
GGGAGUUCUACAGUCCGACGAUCGUUGCCAGCUUCCGGUUCCGUUGGGCUCGGUUCUCUCCUGAGCUACGGUCCCUGGCACUCUCAAUCCGCCAUCCAACGGCAGUCAUGCAGGUAAUGCAGUUUGUGGAGCCCAGCCGGCAGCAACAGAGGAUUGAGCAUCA | 0.115
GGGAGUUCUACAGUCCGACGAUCUUUGUAAUAUCUGUAAAAGGUUCCCCCCCCCUACUGUAAAAAAAUAUGCAUGUAUAGUAAUUAGGACUUCAUUCCUCCAUGUUUUCUUCCCUUAUCUUACUGUCAUUGUCCUUAAACCUUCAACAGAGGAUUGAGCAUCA | 4.5
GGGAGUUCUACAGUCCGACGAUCAAAGAGUGGAUAGAGUGUGCACAUGGAAUCGGUGGGACCCGGGCGAAAAAGGAGUGCAAGAUAGAGUUCGAUGACUUCGAAGAGUGCUUGCUUCGGUACAAAACGAUGAGACGUGCACAUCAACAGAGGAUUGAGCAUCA | 0.216
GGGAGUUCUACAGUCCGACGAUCGCAGGAUCUUCUAAGUACCAGUGGGACAUUAUGAAAUCCCUUGGGCUCUCUGAUGACGACAUAGUGAAAUUUUCUGAAGCAGAACAUUGGCUUGAUUAUUUCCCACCACUGGCCGUUCAGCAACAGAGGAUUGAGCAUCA | 0.434

Block 4 — technique: RNA Bind-n-Seq; molecule type: RNA; matrix: in vitro; tested at: 365 nM; baseline: no-protein control; direction: higher = stronger binding
Target: RNA binding protein fox-1 homolog 2, RRM domain, GST-SBP tag (RBFOX2, Homo sapiens, UniProt O43251-10, residues 100-194)
Setting: natural RNA segment, single round, ends assumed
Residues (chain): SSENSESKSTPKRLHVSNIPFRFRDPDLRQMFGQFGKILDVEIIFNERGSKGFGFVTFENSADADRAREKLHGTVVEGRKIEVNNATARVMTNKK
Oligonucleotide | RBNS enrichment (R)
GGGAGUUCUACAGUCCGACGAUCCUGGUGCCUGAAGGAAACUCUGGGAAAUUGUACACUAACAGGGAGUUGAACCAUGAAGCUCUUCGUCAGAUGAAUGAAUACUUUUGAUUGGACAACAGAUAAUGGGUUAGUGGAAUUCUCGGGUGCCAA | 0.684
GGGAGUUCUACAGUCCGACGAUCGCCCCCUUCACUCUUGGAAGUUUGGGGCUUCAAGGUUUAUUCUGGCAAGAACACCUCGGAGCCACUGCAUUGUUUUGCCAAAAACUUACUGCAGAUUAAGUAAAGAACUUUGGAAUUCUCGGGUGCCAA | 0.321
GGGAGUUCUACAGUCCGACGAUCAGUAAUGCAUAAACUGUCAGAAUCGGGACCUUAUCGUUGAGGUGAAAAGAACCAAGGCCCGUAGGAACAAGGUGCUAUGAAUCUGAAACCAAGAGAAACCUCAGUUUGGCUGGAAUUCUCGGGUGCCAA | 0.772
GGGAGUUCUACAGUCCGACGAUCGCUUUAUGUGGCCCUGGGUUCAAACACAGCCCUUCAUAUGUAUAUAGCCAAACACUCUACAACUGAGCUACAUCCUCCAGCCUAGGCUGUAAAUGUUUUUUGGAGCUAGAUGGAAUUCUCGGGUGCCAA | 0.312
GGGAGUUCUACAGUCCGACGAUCCCACGCUGUUGUAAAAACCCAAGUCCCUGUCAUUUGAACCUGGAUCCAGCACUGGUGAACUGAGCUGGGCAGGAAGGGAGAACUUGAAACAGAUUCAGGCCAGCCCAGCCUGGAAUUCUCGGGUGCCAA | 0.316
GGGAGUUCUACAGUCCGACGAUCGAAAAUAUUUCUUUUAUGAUUUUCUUCUCCCACUCCCUGUCCUCCAGUGUUCUGUUAAUAUUAUUUGUAAUUUAGUUUGUAAAUUCAUUAAAAGAAAAUAUUCUCAGCUGUGGAAUUCUCGGGUGCCAA | 0.585
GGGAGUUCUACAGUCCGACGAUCGAGCUUGUGGUGUGCUUUGCAGGAGGACUUGAAGCAGAGUUCACCAGUGAGCUCAGGUGUCUCAAAGAAGGGUGGAAGUUCUAAUGUCUGUUAGCUACCCAUAAGAAUGCUGGAAUUCUCGGGUGCCAA | 1.96
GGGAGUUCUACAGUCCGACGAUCCUUUAACAAAGACUCAAGAUCAAAUUUCUUACCUAAAAGUUUAGGUUAACUGUUGACUCCUCAAGGGUUUUGAUCAAUAUCACCCAAACCUUUUCCACUUGACAUGCUAGUGGAAUUCUCGGGUGCCAA | 0.482
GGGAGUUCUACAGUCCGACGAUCGAAGCCCAUGAACCAUCGCUGAGGUUCUGAUACAACAUAGAGUUUUUUCCAAGGAGUGAAUGUGGUUUAAUUACUGGACUCUCUUAGCACAGGAAGGUGGAAACAAAAUGUGGAAUUCUCGGGUGCCAA | 0.565

For quick reference, copied from above (block 1):
Oligonucleotide | fluorescence intensity [a.u.]
GTATTTCCGGTATCGCACGTGGTGATGGATTTGATCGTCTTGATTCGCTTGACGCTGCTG | 19600
TGCGCAACAACTTTTCACGTGTGATTATGTCTAGAAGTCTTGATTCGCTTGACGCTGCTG | 12900
GCAAAAAAAGCCCATCACGTGATGGGGAAGATTTCAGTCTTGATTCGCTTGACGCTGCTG | 12800
